# Measurements collected from several papers.
# A part holds a random share of what one study measured. Positions count from the first letter of the parent shown.

# Block 1
# Target: CCNB2, cyclin fold, Cln2 fusion (human)
# Method: yeast growth competition, sequencing
# Medium: yeast
# Notes: strong parent motif
# Baseline: not given
# Direction: higher = stronger binding
# Parent: viral docking peptide; TSVRRALFTGGSD
Change,normalised enrichment score
TSKRRALFTGGSD [V3K],0.336
TGVRRALFTGGSD [S2G],0.752
TSVRRALFTGGWD [S12W],0.805
TSVRRALFMGGSD [T9M],0.746
TLVRRALFTGGSD [S2L],0.592
TSVRRATFTGGSD [L7T],0.0913
TSVIRALFTGGSD [R4I],0.416
TSVSRALFTGGSD [R4S],0.578
TSWRRALFTGGSD [V3W],0.245
TSVRRALFTAGSD [G10A],0.829
TSVRRALFTGSSD [G11S],0.727
TSVRRALKTGGSD [F8K],0.163
TSVRRPLFTGGSD [A6P],-0.377
TSVRRALFEGGSD [T9E],0.717
TSVRRALFTGGKD [S12K],0.428
TSVRRALFTFGSD [G10F],0.116
TSVRRELFTGGSD [A6E],0.641
TSVRRALFTGGVD [S12V],0.746
TSVRRALFTGDSD [G11D],1.39
TSVRRALFTGGDD [S12D],1.18

# Block 2
# Target: Histone acetyltransferase KAT6A, both winged helices, GST fusion (KAT6A, Homo sapiens, UniProt Q92794, residues 1-181)
# Method: protein binding microarray
# Form: double-stranded DNA, one strand shown
# Medium: in vitro
# Tested at: not given
# Notes: 8-mer, flanks averaged, mean of 2 arrays, mostly near background
# Baseline: not given
# Direction: higher = stronger binding
# Construct (chain): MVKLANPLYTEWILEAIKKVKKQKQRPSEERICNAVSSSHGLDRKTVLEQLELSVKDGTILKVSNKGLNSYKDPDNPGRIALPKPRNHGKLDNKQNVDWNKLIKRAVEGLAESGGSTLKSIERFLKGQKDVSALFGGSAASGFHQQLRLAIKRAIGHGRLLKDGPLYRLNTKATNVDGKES
Strand,E-score
AATCGTTG,-0.113
AGAGGCAG,-0.315
CCACAATC,-0.139
CCTTCTCC,-0.269
ATAACCGG,0.174
GCCCCTTA,0.00145
CTCTTCTA,0.027
AATAAATA,0.0158

# Block 3
# Target: HLA class I histocompatibility antigen, A alpha chain, allele A*80:01 (Homo sapiens, UniProt P04439)
# Effect on: peptide-MHC binding
# Form: peptide
# Tested at: concentration not given
Sequence,binding
VTSSVSSGY,inactive
KTFEWGVFY,inactive
YYSNKAYQY,inactive
GRYNLISPK,inactive
CLSDEINHV,inactive
NVMAADPPK,inactive
EAYCALLCK,inactive
TEFFMSRKL,inactive
GSFRKICGF,inactive
LAYLAGWII,inactive
EGFDPRALI,inactive
GTEYRLTLY,inactive
PLFPGITRV,inactive
YYLIKYLHV,inactive
TKAGMAQYL,inactive
HAEQGLIQY,inactive
PQVLGGLSF,inactive

# Block 4
# Target: Ras GTPase-activating protein-binding protein 1, RRM domain (G3BP1, Homo sapiens, UniProt Q13283)
# Sequence of UniProt Q13283 (whole entry, looked up): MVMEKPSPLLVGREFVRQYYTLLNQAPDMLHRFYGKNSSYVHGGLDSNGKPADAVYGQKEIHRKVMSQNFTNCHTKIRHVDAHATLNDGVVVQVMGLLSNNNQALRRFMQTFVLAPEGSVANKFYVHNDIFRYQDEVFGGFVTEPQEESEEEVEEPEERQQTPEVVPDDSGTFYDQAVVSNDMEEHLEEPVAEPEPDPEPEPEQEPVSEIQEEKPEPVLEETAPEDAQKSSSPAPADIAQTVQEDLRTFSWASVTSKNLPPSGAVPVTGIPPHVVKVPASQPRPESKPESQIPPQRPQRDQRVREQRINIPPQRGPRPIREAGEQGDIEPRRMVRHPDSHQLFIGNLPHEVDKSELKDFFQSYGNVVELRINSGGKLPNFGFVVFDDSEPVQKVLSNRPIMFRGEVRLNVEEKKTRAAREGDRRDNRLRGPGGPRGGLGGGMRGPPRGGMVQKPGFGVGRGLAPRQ
# Method: RNA Bind-n-Seq
# Form: RNA
# Medium: in vitro
# Tested at: 1 µM
# Notes: whole 134-nt RNA, ends assumed
# With: 150 mM KCl
# Baseline: input library
# Direction: higher = stronger binding
Strand,log2 enrichment
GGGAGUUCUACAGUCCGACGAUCAGUCCUGUGCUACACAUCGUAUGUACCGAAUCAAAUUUUUAAAUUUUUAAAUUUAAAAAAGUAUUAUGUUACGCCGUUCGGAUCUGCACUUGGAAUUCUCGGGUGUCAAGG,-0.992
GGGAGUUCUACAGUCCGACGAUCGCAGGAAGUAAAAACAAAUGGAAAUGCUUCGGAUAGUGGCAGGGGUGGGGGUAGCUAAGGAAAGGGUGGGAUGGGAGUGGGUAAAGAGUUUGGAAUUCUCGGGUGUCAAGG,0.775
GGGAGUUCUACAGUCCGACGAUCAGUCCUGUGCUACACAUCGUAUGUACCGAAUCGGGGAAAAGGGAAAAGGAAAAGGGGAAAGUAUUAUGUUACGCCGUUCGGAUCUGCACUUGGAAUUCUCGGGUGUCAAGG,0.137
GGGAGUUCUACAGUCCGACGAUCUCCUGUGCUACACAUCGUAUGUACCGAAUCGGGGAAAAAGGGGUUUUUGGGGUUUGGGGAAAGUAUUAUGUUACGCCGUUCGGAUCUGCAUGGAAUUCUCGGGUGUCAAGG,1.23
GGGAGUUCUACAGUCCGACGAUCUAACUUUAGAGGAGGAUCUGAUGGAUAUGGGAGUGGACGUGGAUUUGGGGAUGGCUAUAAUGGGUAUGGAGGAGGACCUGGAGGUGGCAAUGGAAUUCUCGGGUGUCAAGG,-0.233
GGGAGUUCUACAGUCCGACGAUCUAAUUGUGAUCUACAUUUUAAAAUAUCAAGAGAUCGUCUCAGUGCUUCUUCCCUUACAAUGGAGAGUUUUGCUUUUCUUUGGGCUGGAGGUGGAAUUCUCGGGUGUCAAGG,-0.362
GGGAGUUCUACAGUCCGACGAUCCACAGACAACACGCACCCACACAGACACAGAGGGAAGGGGUUGGGAUGGGGACAGGGUGCACAGCAGGGCGGGGUAGGACAAAAGCCCCUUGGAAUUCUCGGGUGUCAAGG,-0.0962
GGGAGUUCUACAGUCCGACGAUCUUCAUUCUUACUUUGAAUCUAGGAUUUUAUGGAAGACCUUGGGUUAUGGAACAGAGAAAAGAACUCUUUAGAAGGUAAAUCUUCAUUAUAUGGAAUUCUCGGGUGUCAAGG,-0.229

# Some of these lines once more (block 1):
Change,normalised enrichment score
TSKRRALFTGGSD [V3K],0.336
TGVRRALFTGGSD [S2G],0.752
TSVRRALFTGGWD [S12W],0.805
